Measurements from different studies.
Every numbered part comes from another study and shows a few of its results, in no order. Substitutions count along the parent as printed.

Block 1
Target: Sal-like protein 4, full length isoform A (SALL4, Homo sapiens, UniProt Q9UJQ4, residues 1-1053)
Chain of UniProt Q9UJQ4 (whole entry, looked up): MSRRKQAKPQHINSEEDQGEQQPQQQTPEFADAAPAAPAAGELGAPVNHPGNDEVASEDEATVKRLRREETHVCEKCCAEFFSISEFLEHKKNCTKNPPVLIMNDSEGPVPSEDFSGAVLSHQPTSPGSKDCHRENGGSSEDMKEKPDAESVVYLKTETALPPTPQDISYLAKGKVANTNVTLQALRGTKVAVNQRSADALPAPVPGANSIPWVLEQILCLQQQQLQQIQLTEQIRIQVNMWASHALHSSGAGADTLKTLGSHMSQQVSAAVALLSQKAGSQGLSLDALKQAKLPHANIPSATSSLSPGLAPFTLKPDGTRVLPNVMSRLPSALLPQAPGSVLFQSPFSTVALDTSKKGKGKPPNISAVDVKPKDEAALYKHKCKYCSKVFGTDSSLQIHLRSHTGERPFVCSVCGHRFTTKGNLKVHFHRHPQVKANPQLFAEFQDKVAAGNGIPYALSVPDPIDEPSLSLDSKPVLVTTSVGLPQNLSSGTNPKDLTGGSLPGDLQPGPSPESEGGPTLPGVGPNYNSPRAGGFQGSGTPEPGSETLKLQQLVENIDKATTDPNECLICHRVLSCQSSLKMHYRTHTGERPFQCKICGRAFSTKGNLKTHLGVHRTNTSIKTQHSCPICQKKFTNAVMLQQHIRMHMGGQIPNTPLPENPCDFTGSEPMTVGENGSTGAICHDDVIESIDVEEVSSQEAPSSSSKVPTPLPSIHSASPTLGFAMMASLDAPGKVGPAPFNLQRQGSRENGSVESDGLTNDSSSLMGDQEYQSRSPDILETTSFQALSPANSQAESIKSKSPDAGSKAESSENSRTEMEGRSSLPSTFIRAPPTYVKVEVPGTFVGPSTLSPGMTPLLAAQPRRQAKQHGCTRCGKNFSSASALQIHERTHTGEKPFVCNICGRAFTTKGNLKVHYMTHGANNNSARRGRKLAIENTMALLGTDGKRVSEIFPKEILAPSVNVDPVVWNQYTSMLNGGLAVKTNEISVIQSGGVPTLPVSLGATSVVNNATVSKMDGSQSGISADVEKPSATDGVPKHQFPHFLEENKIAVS
Method: universal PBM
Form: double-stranded DNA, one strand shown
Medium: in vitro
Tested at: 600 nM
Setting: 8-mer, flanks averaged, mean of replicates
Reading: higher = stronger binding
| Sequence | E-score |
| --- | --- |
| AGGCGTAA | -0.0422 |
| CAAGGCAG | -0.0987 |
| AACATGAT | 0.309 |
| AGACGTGC | -0.0977 |
| CCTAGCAA | 0.0275 |
| AGTGACTG | -0.171 |
| CATCTCCG | -0.105 |
| AGGTACGC | -0.21 |
| CAAAGCAA | 0.137 |
| CAACCGGA | -0.166 |
| AACGATGG | -0.122 |
| AACTCGCG | -0.149 |
| ACCACCCC | -0.252 |
| CATCGATC | -0.0625 |
| CTGAACTC | -0.106 |
| AGCTGCCA | -0.146 |

Block 2
Target: Interferon regulatory factor 3, full length, phosphomimetic (IRF3, Homo sapiens, UniProt Q14653, residues 1-427, S386D/S396D/S398D/S402D/T404D/S405D)
Method: protein-binding microarray
Form: double-stranded DNA, one strand shown
Medium: in vitro
Tested at: 2540 nM top
Setting: 60-bp whole probe
With: salmon DNA 0.4 mg/ml
Reference: random background probes
Reading: higher = stronger binding
All sequences stand within: GCCTAGCAC … GTCTTGATTCGCTTGACGCTGCTG
Construct (chain): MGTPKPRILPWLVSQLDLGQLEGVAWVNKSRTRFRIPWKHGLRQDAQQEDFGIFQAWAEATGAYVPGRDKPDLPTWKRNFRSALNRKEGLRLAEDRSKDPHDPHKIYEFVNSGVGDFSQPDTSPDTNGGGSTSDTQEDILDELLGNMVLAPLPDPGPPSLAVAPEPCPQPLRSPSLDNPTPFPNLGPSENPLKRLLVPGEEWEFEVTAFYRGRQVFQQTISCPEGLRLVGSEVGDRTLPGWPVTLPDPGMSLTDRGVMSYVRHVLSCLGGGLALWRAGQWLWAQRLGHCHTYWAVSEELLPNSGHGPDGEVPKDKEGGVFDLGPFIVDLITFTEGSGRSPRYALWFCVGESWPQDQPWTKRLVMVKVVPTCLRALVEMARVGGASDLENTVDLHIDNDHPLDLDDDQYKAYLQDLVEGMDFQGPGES
| Sequence | fitted relative affinity [z-score] |
| --- | --- |
| GACGGTTTAGGTTTCGGGACGTGCTAG | 3.34 |
| GACGAACTGAGTTCCGAGACGTGCTAG | 0.113 |
| GAATATATGTATATATGTGTGTGCTAG | 0.135 |
| TTTCTTTTCCATTTTGTGTTGTGCTAG | 5.65 |
| TTAGATCTCAGTATCGTTTAGTGCTAG | 1.31 |
| GTAGGTTTCGGTTTCGGTTAGTGCTAG | 11.9 |
| TTATGACTGCTTCTCCTTTAGTGCTAG | 0.107 |
| GACGATCTCAGTTTCGAGACGTGCTAG | 2.84 |
| TGCCCTCTAACTTCCCAATGGTGCTAG | -0.0369 |
| GGCCCTTTGCTTTCCTGATGGTGCTAG | 0.635 |
| CTGCAGCCCACTCCTGAACAGTGCTAG | -0.56 |
| AACGAACTGAGTTTCGAGACGTGCTAG | 1.43 |
| TTAGATTTCGGGACTGGATCAGTGCTA | 1.43 |
| GACGATTTCGGGTTTCGGGACGTGCTA | 3.03 |
| TCACCTCTGTCATTTTCACTGTGCTAG | 0.521 |
| TCACCTTTATGTACTCTCACTGTGCTA | 1.2 |
| TTATGTATCCTTTTCCTTTAGTGCTAG | 8.36 |
| GACGATCTGAGTATCGAGACGTGCTAG | 0.212 |
| ATCTTTTTCCTAATTGAACCGTGCTAG | 3.78 |
| TCATTATTTATTTTTACACTGTGCTAG | 1 |
| CACGATTTCAGTTTCGAGACGTGCTAG | 4.28 |
| TTAGGACTGGAGTATCGGTTAGTGCTA | 0.457 |

Block 3
Target: Phosphate system positive regulatory protein PHO4, full length, GST-tagged (PHO4, Saccharomyces cerevisiae, UniProt P07270, residues 1-312)
Method: competition protein-binding microarray
Form: double-stranded DNA, one strand shown
Medium: in vitro
Tested at: 2 µM
Setting: whole 60-bp probe, lowest competitor level
With: Cbf1 competitor, 0.05 µM
Reading: higher = stronger binding
Residues (chain): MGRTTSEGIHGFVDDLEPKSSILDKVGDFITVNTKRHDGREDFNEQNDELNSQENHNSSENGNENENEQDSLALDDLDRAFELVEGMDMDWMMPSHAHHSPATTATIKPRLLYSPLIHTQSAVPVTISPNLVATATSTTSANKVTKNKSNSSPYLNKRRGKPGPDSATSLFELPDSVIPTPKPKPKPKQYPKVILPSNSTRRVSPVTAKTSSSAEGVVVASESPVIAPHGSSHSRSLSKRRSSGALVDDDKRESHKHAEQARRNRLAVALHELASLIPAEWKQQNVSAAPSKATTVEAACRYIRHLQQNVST
| Sequence | fluorescence intensity [a.u.] |
| --- | --- |
| AACTCCAAATATCTTCACGTGGCTGCCTGTTCTAAAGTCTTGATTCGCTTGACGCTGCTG | 15500 |
| CCAATTTATTGACATCACCTGGAATGCAGGCGGTGGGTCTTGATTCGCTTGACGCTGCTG | 5040 |
| GAAAGCATCCGACGCCGCGTGGTCAATTTGTTCCTTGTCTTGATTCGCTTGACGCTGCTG | 8920 |
| CTAACGAAGGTTTGCGTTGTGGGTGACAAGCCAAGTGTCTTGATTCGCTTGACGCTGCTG | 4910 |
| TCATCTCTAAGAGTTGCCGTGCCGATCCATCCGCTTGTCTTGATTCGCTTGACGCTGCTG | 4510 |
| GTACTGTTTCATTTAAACGTGTTTTCACTTGATCCAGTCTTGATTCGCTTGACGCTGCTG | 10100 |
| ATGGTTGTCTATGCTTCCGTGGGTATCACCAGATTAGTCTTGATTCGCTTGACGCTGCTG | 4520 |
| AATTTTTTTCTTCGGCACGTCATACACCTTGTAATGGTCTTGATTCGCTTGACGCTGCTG | 6070 |
| ATGCCAAGTAAGGTTTTTCGGATTTAGGGTGGCGTCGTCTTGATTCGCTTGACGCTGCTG | 3400 |
| TGTAAATAACCGTGGAAGAATTTGTATTATCATCGTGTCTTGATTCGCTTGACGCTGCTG | 6990 |
| CTATTGATATGCTTGCATGTGGACGCAAGCAGACGCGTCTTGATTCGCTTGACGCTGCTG | 8000 |
| GTCTTGTCTCATTGGGCTGTGGGTGTCCCCACTTCAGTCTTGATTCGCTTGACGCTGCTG | 4500 |

Block 4
Target: ABI1, truncated, D143A, DHFR fusion (Arabidopsis thaliana)
Method: DHFR PCA, deep sequencing
Medium: yeast
Setting: methotrexate growth selection, single substitutions
With: (+)-ABA 0.032 µM
Reference: wild-type fitted maximum
Reading: higher = stronger binding
Parent: PYL1, truncated, DHFR fusion (Arabidopsis thaliana); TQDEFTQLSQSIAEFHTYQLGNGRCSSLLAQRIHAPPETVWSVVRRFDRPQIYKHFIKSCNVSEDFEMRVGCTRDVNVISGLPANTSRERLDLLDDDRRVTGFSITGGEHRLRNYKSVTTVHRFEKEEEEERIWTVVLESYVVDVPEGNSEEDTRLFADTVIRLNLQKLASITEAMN; partner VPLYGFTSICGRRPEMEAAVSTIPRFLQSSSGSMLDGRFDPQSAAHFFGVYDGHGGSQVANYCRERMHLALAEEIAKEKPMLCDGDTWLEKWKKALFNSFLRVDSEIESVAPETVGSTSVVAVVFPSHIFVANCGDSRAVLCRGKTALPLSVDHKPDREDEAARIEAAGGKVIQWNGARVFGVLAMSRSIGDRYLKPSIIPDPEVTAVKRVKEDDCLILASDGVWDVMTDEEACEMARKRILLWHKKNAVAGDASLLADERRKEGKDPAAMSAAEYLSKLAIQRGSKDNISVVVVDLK
| Change | relative binding score |
| --- | --- |
| C60N | -1.85% |
| V70Y | 3.43% |
| R45Y | -0.826% |
| Q2N | 19.8% |
| F103G | 0.687% |
| A170F | -40.3% |
| E128M | 16.9% |
| R46C | -2.75% |
| V78T | 17% |
| P146R | 5.58% |
| R69V | 34.3% |
| R49C | 24.7% |

Block 5
Target: FOSL1, bZIP domain (human)
Method: DHFR protein complementation
Medium: yeast
Setting: single substitutions, most at no-binding floor
Reference: wild-type JUN-FOS pair
Reading: higher = stronger binding
Parent: JUN, bZIP domain (human); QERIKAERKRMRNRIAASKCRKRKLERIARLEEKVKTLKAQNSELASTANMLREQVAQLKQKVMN; partner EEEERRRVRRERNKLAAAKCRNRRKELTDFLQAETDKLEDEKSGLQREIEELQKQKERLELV
| Change | binding fitness [natural log] |
| --- | --- |
| E33M | -0.539 |
| T37E | -0.271 |
| E32K | -0.384 |
| Q55A | -0.385 |
| Q41V | -0.511 |
| K36L | -0.484 |
| L31D | -1.37 |
| Q55D | -0.836 |
| S47L | -0.408 |
| E44W | -0.973 |
| E44V | -0.436 |
| S47W | -0.522 |
| N42T | -0.524 |
| S43N | -0.385 |
| L31K | -1.23 |
| L31G | -1.37 |
| K34Y | -0.489 |

Block 6
Target: CCNE1, cyclin fold, Cln2 fusion (human)
Method: yeast growth competition, sequencing
Medium: yeast
Setting: strong parent motif
Reference: not given
Reading: higher = stronger binding
Parent: CDKN1A docking peptide (human); SKACRRLFGPVDS; partner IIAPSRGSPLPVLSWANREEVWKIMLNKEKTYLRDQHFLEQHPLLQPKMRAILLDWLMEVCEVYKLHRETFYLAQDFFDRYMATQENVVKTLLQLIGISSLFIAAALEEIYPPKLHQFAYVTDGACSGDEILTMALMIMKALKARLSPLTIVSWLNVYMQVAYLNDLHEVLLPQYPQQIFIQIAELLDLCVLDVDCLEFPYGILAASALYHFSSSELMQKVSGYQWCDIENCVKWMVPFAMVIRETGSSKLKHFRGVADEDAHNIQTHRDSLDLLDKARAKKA
| Change | normalised enrichment score |
| --- | --- |
| F8M | 0.333 |
| G9K | 3.34 |
| P10Y | 4.32 |
| R5S | 0.033 |
| G9Q | 5.83 |
| G9N | 4.84 |
| R6F | 1.97 |
| K2A | 4.5 |
| K2S | 5.68 |
| K2G | 6.23 |
| L7Y | 0.623 |
| V11W | 5.72 |
| C4R | 5.86 |
| K2F | 3.86 |
| P10V | 4.65 |
| P10M | 3.86 |

Block 7
Target: Histone acetyltransferase KAT6A, both winged helices, GST fusion (KAT6A, Homo sapiens, UniProt Q92794, residues 1-181)
Method: protein binding microarray
Form: double-stranded DNA, one strand shown
Medium: in vitro
Tested at: not given
Setting: 8-mer, flanks averaged, mean of 2 arrays, mostly near background
Reference: not given
Reading: higher = stronger binding
Residues (chain): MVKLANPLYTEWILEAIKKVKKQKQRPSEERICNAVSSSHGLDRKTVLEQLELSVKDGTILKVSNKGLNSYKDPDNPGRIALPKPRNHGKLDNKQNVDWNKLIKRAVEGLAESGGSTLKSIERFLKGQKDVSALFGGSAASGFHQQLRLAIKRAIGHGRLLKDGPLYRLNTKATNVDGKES
| Sequence | E-score |
| --- | --- |
| GACCAATA | -0.0253 |
| GGTGCTCA | -0.101 |
| CCGAAGCG | 0.225 |
| AAACAATT | 0.0362 |
| CGCTTTAC | 0.187 |
| GGGGTTAC | 0.106 |
| CTTCGTGC | -0.0215 |
| TCACAGAA | -0.0784 |
| CCAGTCAA | -0.167 |
| ACCGTAGG | -0.00494 |
| CGCGCGGC | 0.401 |
| GACGACCA | -0.16 |
| CAGAAATA | -0.146 |
| CTTAGACA | -0.144 |
| GCCAAATA | -0.124 |
| AGTTCGTC | 0.0774 |
| AAGTCTGG | -0.271 |
| CACAGGGG | -0.0679 |
| CCATAAGG | -0.0744 |
| CCGGAGAA | 0.164 |
| ACCAGCCA | -0.263 |
| CTACCCAC | -0.181 |
| CCTAGATC | -0.109 |
| ACTGGGCA | -0.32 |
| ATGATGAG | -0.117 |

Repeated from above (block 6):
| Change | normalised enrichment score |
| --- | --- |
| R5S | 0.033 |
| P10Y | 4.32 |
| K2A | 4.5 |
| P10V | 4.65 |
| G9N | 4.84 |
| K2F | 3.86 |
| R6F | 1.97 |
| F8M | 0.333 |
